Assay results gathered from unrelated publications.
Numbers after ± are the reported error.

SMILES | cell line | test | conditions | how to read | IC50 [µM]
CC1=C2[O][Ru-]([Cl])[O+]=C2C=CN1CCCCCCCCCCCCN1C=CC2=[O+][Ru-]([Cl])[O]C2=C1C.Cc1ccc(C(C)C)cc1.Cc1ccc(C(C)C)cc1 | KYSE-70 | cell growth or viability, crystal violet | 96 h |  | 22.5
N#Cc1cccc(-c2ccc(=O)n(Cc3cccc(-c4ncc(OCC5CCN(CCCCCCCC(=O)Nc6cccc7c6C(=O)N(C6CCC(=O)NC6=O)C7=O)CC5)cn4)c3)n2)c1 (centres unmarked) | EBC-1 | cell growth or viability, CCK-8 | 72 h |  | 0.0195
COc1ccc2nc(Cl)c(-c3nc4cc(F)ccc4[nH]3)cc2c1 | L02 | cell growth or viability, MTT | 48 h |  | > 100
C(=C\c1cnc2[nH]c3ccc(-c4ccc(OCc5nnn[nH]5)cc4)cc3c2c1)/c1ccccc1 | Ba/F3 NPM-ALK | cell proliferation, [3H]-thymidine incorporation |  |  | 3.5
COc1ccc2nc(Cl)c(-c3nc4ccccc4[nH]3)cc2c1 | BEL-7404 | cell growth or viability, MTT | 48 h |  | > 100
COc1ccc2cc3[n+](cc2c1OCc1cn(Cc2ccccc2Br)nn1)CCc1cc2c(cc1-3)OCO2 | SMMC-7721 | cell growth or viability, MTT |  |  | 24.3
c1ccc(-c2nc(-c3cccnc3)[nH]c2-c2ccccc2)cc1 | BT-474 | cell growth or viability, SRB | 48 h |  | 57.6
C[C@]12CC/C(=N\O)C=C1CCC1C2CC[C@]2(C)/C(=C/c3ccccn3)CCC12 (some centres unmarked) | human Fibroblast | cell growth or viability, resazurin | 72 h |  | > 50
Clc1cc2nc(-c3cc4ccccc4nc3Cl)[nH]c2cc1Cl | BEL-7404 | cell growth or viability, MTT | 48 h |  | 19.4
Cc1c(C)c(-c2ccc(-c3ccccc3)cc2)[c-](C)c1C.Cc1c(C)c(-c2ccc(-c3ccccc3)cc2)[c-](C)c1C.[Cl-].[Cl-].[Cl-].[Cl-].[Ir+3].[Ir+3] (centres unmarked) | HeLa human cancer cells | cell growth, MTT | 24 h |  | > 50
CC[C@H](C)[C@H](N)C(=O)Nc1ccc2nc(Cc3c[nH]c4ccccc34)[nH]c2c1 | NCI-H441 | cell growth or viability, ATP luminescence | 72 h |  | 27.7
Cc1ccc(Nc2ccn3ncc(-c4ccc5c(c4)CN([C@H]4CCC(=O)NC4=O)C5=O)c3n2)cc1Cl | MOLM-13 CRBN knock-out | cell viability, CellTiter-Glo | 72 h |  | > 10
CCCCCCCCCCn1c(-c2cccnc2)nc(-c2ccc(C)cc2)c1-c1ccc(C)cc1 | BT-474 | cell growth or viability, SRB | 24 h |  | > 100
CO[C@@H]1[C@@H](O[C@@H]2O[C@H](C)[C@@H](O[C@H]3C[C@@](C)(O)[C@@H](OC(=O)CN4CCOCC4)[C@H](C)O3)[C@H](N(C)C)[C@H]2O)[C@@H](CC=O)C[C@@H](C)[C@@H](O[C@H]2CC[C@H](N(C)C)[C@@H](C)O2)/C=C/C=C/C[C@@H](C)OC(=O)C[C@H]1O | GES1 | cell growth or viability, CCK-8 | 72 h |  | 9.56
O=C(CCCCCCNc1ccc(C(=O)Nc2ccc(Cl)c(NC(=O)c3cccc(Cl)c3)c2)cn1)NO | NIH3T3 Gli-luciferase | Hedgehog signalling reporter | 36 h, with: Shh-N conditioned medium 20% |  | 0.027
O=C(N[C@@H](Cc1coc2ccccc12)B(O)O)[C@@H]1C[C@H]2CC[C@@H]1O2 | MM1.S | cell growth or viability, resazurin | 96 h |  | 0.367
C1=CCC=C1.[Cl][Au-]1([Cl])[N+](=P(c2ccccc2)(c2ccccc2)[c-]2cccc2)Cc2cccc[n+]21.[Fe+2].[O-][Cl+3]([O-])([O-])[O-] | HEK-293T | cell growth or viability, MTT | 74 h |  | 32.2
COc1ccc2cc3[n+](cc2c1OCc1cn(Cc2c(Cl)cc(Cl)cc2Cl)nn1)CCc1cc2c(cc1-3)OCO2 | SMMC-7721 | cell growth or viability, MTT |  |  | 18.7
CC(=O)OC[C@H]1O[C@@H](NC(=O)COc2ccc(-c3ccccc3)cc2)[C@H](OC(C)=O)[C@@H](OC(C)=O)[C@@H]1OC(C)=O | human T-lymphocyte | cell growth or viability | 72 h |  | 180
CCCCCCCCCCCCCCCC(=O)O[C@H]1[C@H](C)O[C@@H](O[C@H]2[C@H](N(C)C)[C@@H](O)[C@H](O[C@H]3[C@@H](CC=O)C[C@@H](C)[C@@H](O[C@H]4CC[C@H](N(C)C)[C@@H](C)O4)/C=C/C=C/C[C@@H](C)OC(=O)C[C@@H](O)[C@@H]3OC)O[C@@H]2C)C[C@@]1(C)O | GES1 | cell growth or viability, CCK-8 | 72 h |  | 10.8
N=C(N)NCCC[C@@H](N)C(=O)N[C@@H](CC(=O)N[C@H](Cc1ccccc1)C(=O)N[C@H](CC(=O)O)C(=O)O)c1ccc2ccccc2c1 | BT-474 | cell growth or viability, ATP luminescence | 72 h |  | > 100
CN1CCCNC(=O)CC2(CCCCC2)CC(=O)NCCCN(C)CCCNc2cccc3c2C(=O)c2cccc(c2C3=O)NCCC1 | Ca9-22 | cell growth or viability, CCK-8 | 48 h |  | > 20
COc1c(O)cc2oc3cc4c(c(O)c3c(=O)c2c1CC=C(C)C)C=CC(C)(C)O4 | SMMC-7721 | cell growth or viability | 48 h |  | 11.5
CC/C(=C(\c1ccc(O)cc1)c1ccc(OCCN(C)CCOCCOCCOCCN(C)CCOc2ccc(/C(=C(/CC)c3ccccc3)c3ccc(O)cc3)cc2)cc1)c1ccccc1 | MCF7 (ER-positive) | cell growth | 96 h |  | 0.11
CC(=O)[O][Pt]([Cl])([Cl])[O]C(C)=O.N.N | BXPC-3 | cell growth or viability |  |  | 36.6

SMILES | cell line | test | conditions | how to read | IC50 [µM]
CC(=O)OC[C@H]1O[C@@H](NC(=O)/C=C/c2ccc(-c3ccccc3)cc2)[C@H](OC(C)=O)[C@@H](OC(C)=O)[C@@H]1OC(C)=O | human T-lymphocyte | cell growth or viability | 72 h |  | ≥ 250
C[C@]1([N+](=O)[O-])C(=O)c2ccccc2O[C@@H]1CC(=O)OC12CC3CC(CC(C3)C1)C2 | human Fibroblast | cell growth or viability, SRB | 96 h |  | > 100
O=C1NCC(Cc2ccccc2)N(CC2CCCN2CC(CC2CCCCC2)N2CC(Cc3ccc(O)cc3)N(CCc3ccccc3)C(=O)C2=O)C1=O (centres unmarked) | SK-MEL-2 | cell growth or viability, ATP luminescence | 72 h |  | 4
O=C(CCCCCCNC(=O)c1cc(C(=O)c2ccccc2)cn1Cc1ccc(F)cc1)NO | human Epithelial cell | cell growth or viability |  |  | > 50
CO[C@@H]1[C@@H](O[C@@H]2O[C@H](C)[C@@H](O[C@H]3C[C@@](C)(O)[C@@H](OC(=O)CN(C)C)[C@H](C)O3)[C@H](N(C)C)[C@H]2O)[C@@H](CC=O)C[C@@H](C)[C@@H](O[C@H]2CC[C@H](N(C)C)[C@@H](C)O2)/C=C/C=C/C[C@@H](C)OC(=O)C[C@H]1O | GES1 | cell growth or viability, CCK-8 | 72 h |  | > 50
CC(C)c1cccc(C(C)C)c1[N+]#[C][Pd-]([Cl])([Cl])=[C](Nc1ccc(CN[C](Nc2c(C(C)C)cccc2C(C)C)=[Au][Cl])cc1)Nc1c(C(C)C)cccc1C(C)C | MRC5 | cell growth or viability |  |  | > 100
C=C1C(=O)OC2C1CCC1(C)CC1CCC1(C)OC21 (centres unmarked) | GBM6 | cell growth or viability, resazurin |  |  | 2.3
COc1c(O)cc2oc3c(Cl)c(O)c(CC=C(C)C)c(O)c3c(=O)c2c1CC=C(C)C | SMMC-7721 | cell growth or viability | 48 h |  | 34.7
CC(C)c1cccc(C(C)C)c1[N+]#[C][Pt-2]([Cl])([Cl])[C]#[N+]c1c(C(C)C)cccc1C(C)C | MRC5 | cell growth or viability |  |  | > 100
N#Cc1cccc(-c2ccc(=O)n(Cc3cccc(-c4ncc(OCC5CCN(CC(=O)NCCOCCOCCOCCNc6ccc7c(c6)C(=O)N(C6CCC(=O)NC6=O)C7=O)CC5)cn4)c3)n2)c1 (centres unmarked) | EBC-1 | cell growth or viability, CCK-8 | 72 h |  | 0.00461
CC(=O)O[C@@H]1[C@H](OC(C)=O)[C@@H](C)O[C@H]1n1cc(F)c(NC(=O)/C=C/c2ccc(O)c(O)c2)nc1=O | BXPC-3 | cell growth or viability, MTT | 72 h |  | 23.1
N[C@@H](CNC(=O)c1ccc2[nH]c(C(=O)c3ccc(O)cc3)nc2c1)C(=O)O | NCI-H441 | cell growth or viability, ATP luminescence | 72 h |  | > 300
CCN1/C(=C/C=C2\CCCC(/C=C/C3=[N+](CC)c4ccccc4C3(C)C)=C2NCCCCCCCCN2CCC(Nc3nc4ccccc4n3Cc3ccc(F)cc3)CC2)C(C)(C)c2ccccc21 | LN-229 | cell growth or viability, CCK-8 | 72 h |  | ~1
COc1ccc2cc3[n+](cc2c1OCc1cn(Cc2c(F)cccc2F)nn1)CCc1cc2c(cc1-3)OCO2 | SMMC-7721 | cell growth or viability, MTT |  |  | 25.3
[Cl][Au-][c]1n(-c2c(C(c3ccccc3)c3ccccc3)cc(C(c3ccccc3)c3ccccc3)cc2C(c2ccccc2)c2ccccc2)c2c([n+]1-c1c(C(c3ccccc3)c3ccccc3)cc(C(c3ccccc3)c3ccccc3)cc1C(c1ccccc1)c1ccccc1)-c1cccc3cccc-2c13 | NTERA2 | cell growth or viability, MTT | 72 h |  | > 50
CC(C)C[C@H](NC(=O)[C@@H](Cc1c[nH]c2ccccc12)NC(=O)[C@H](Cc1c[nH]cn1)NC(=O)[C@H](CO)NC(=O)[C@H](Cc1c[nH]c2ccccc12)NC(=O)[C@H](Cc1c[nH]cn1)NC(=O)[C@@H]1CCC(=O)N1)C(=O)N[C@@H](CCCNC(=N)N)C(=O)N1CCC[C@H]1C(=O)NCC(N)=O | WPE-1-NB26-3 | cell growth, inhibitor, sulforhodamine B staining | four days |  | 0.0004 ± 0.0001
CC(C)c1ccc(/C=C/C(=O)N[C@@H]2O[C@H](CO)[C@@H](O)[C@H](O)[C@H]2O)cc1 | human T-lymphocyte | cell growth or viability | 72 h |  | > 250
C=C1C(=O)O[C@H]2CC3=C[C@@H](C/C(C)=C/[C@@H](OC(=O)/C=C/c4ccccc4)[C@H]12)OC3=O | MeWo | cell growth or viability, MTT | 24 h |  | 9.9
CCCCCCCCCCCCCCCCn1c(-c2cccnc2)nc(-c2ccc(C)cc2)c1-c1ccc(C)cc1 | BT-474 | cell growth or viability, SRB | 24 h |  | > 100
CC(=O)C1=C(C)NC(SCC(=O)c2ccccc2)=C(C#N)C1c1sccc1C (centres unmarked) | HeLa with GR | AP-1 reporter transrepression | with: PMA 1 ng/mL | baseline: dexamethasone 10 µM | 1.06 ± 0.029
COc1cc2c(cc1C(C)(C)O)CCC1C(C)(C)c3nc(C)ncc3C[C@]21C (mixture of isomers) | human Epithelial cell | cell growth or viability, SRB | 24 h |  | > 200
Cc1cc2nc(-c3cc4cc5c(cc4nc3Cl)OCO5)[nH]c2cc1C | BEL-7404 | cell growth or viability, MTT | 48 h |  | > 100
C(=C\c1cnc2[nH]c3ccc(-c4ccc(CN5CCOCC5)cc4)cc3c2c1)/c1ccccc1 | Ba/F3 NPM-ALK | cell proliferation, [3H]-thymidine incorporation |  |  | 1.6
Cc1ccc2nc(Cl)c(-c3nc4ccccc4[nH]3)cc2c1 | L02 | cell growth or viability, MTT | 48 h |  | > 100
Cc1cc(C)c([N+]#[C][Pt-]([Cl])([Cl])=[C](Nc2ccc(CN[C](NC(C)(C)C)=[Au][Cl])cc2)Nc2c(C)cc(C)cc2C)c(C)c1 | MRC5 | cell growth or viability |  |  | > 100

A few entries again:
SMILES | cell line | test | conditions | how to read | IC50 [µM]
CC(C)c1ccc(/C=C/C(=O)N[C@@H]2O[C@H](CO)[C@@H](O)[C@H](O)[C@H]2O)cc1 | human T-lymphocyte | cell growth or viability | 72 h |  | > 250
C=C1C(=O)O[C@H]2CC3=C[C@@H](C/C(C)=C/[C@@H](OC(=O)/C=C/c4ccccc4)[C@H]12)OC3=O | MeWo | cell growth or viability, MTT | 24 h |  | 9.9
CCCCCCCCCCCCCCCCn1c(-c2cccnc2)nc(-c2ccc(C)cc2)c1-c1ccc(C)cc1 | BT-474 | cell growth or viability, SRB | 24 h |  | > 100
CC(=O)C1=C(C)NC(SCC(=O)c2ccccc2)=C(C#N)C1c1sccc1C (centres unmarked) | HeLa with GR | AP-1 reporter transrepression | with: PMA 1 ng/mL | baseline: dexamethasone 10 µM | 1.06 ± 0.029
COc1cc2c(cc1C(C)(C)O)CCC1C(C)(C)c3nc(C)ncc3C[C@]21C (mixture of isomers) | human Epithelial cell | cell growth or viability, SRB | 24 h |  | > 200
Cc1cc2nc(-c3cc4cc5c(cc4nc3Cl)OCO5)[nH]c2cc1C | BEL-7404 | cell growth or viability, MTT | 48 h |  | > 100
